{"data": "Experimental data of several laboratories", "note": "Parts stem from different laboratories: compare values within a part only. Substitutions count along the parent as printed.", "sequence of UniProt Q59H18 (whole entry, looked up)": "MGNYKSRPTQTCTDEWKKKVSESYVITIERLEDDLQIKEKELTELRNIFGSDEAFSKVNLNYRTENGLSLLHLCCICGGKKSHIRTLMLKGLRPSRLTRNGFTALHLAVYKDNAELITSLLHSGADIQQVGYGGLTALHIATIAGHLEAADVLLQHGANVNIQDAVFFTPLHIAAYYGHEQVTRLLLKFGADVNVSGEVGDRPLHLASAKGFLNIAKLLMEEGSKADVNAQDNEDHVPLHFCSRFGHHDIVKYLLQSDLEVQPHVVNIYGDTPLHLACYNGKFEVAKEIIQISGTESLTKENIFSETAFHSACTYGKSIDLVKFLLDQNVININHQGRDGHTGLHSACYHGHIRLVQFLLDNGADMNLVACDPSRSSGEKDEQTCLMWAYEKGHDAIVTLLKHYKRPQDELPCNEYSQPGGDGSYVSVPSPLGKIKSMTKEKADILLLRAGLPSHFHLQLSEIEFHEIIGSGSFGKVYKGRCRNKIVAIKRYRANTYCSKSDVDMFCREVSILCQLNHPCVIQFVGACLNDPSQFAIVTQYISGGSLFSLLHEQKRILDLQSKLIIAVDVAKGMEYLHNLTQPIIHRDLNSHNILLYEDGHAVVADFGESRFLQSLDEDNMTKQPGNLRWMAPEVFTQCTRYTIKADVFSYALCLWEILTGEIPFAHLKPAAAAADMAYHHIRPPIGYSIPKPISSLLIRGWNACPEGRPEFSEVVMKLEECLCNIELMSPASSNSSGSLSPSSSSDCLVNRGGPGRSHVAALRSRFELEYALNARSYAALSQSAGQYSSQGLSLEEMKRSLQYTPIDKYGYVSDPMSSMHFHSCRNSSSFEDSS", "sequence of UniProt Q9C5X0 (whole entry, looked up)": "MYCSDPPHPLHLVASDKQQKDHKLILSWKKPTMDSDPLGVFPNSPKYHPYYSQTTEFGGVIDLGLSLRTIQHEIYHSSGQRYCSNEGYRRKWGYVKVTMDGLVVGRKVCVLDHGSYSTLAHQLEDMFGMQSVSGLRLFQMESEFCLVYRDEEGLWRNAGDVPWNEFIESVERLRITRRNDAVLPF"}
{"data": "Block 1", "target": "CCNB2, cyclin fold, Cln2 fusion (human)", "technique": "yeast growth competition, sequencing", "matrix": "yeast", "setting": "strong parent motif", "reference": "not given", "direction": "higher = stronger binding", "starting sequence": "viral docking peptide; TSVRRALFTGGSD"}
{"Substitution": "S12Q", "normalised enrichment score": 0.778}
{"Substitution": "G11L", "normalised enrichment score": 0.951}
{"Substitution": "A6Y", "normalised enrichment score": 0.553}
{"Substitution": "R5I", "normalised enrichment score": 0.191}
{"Substitution": "G11Q", "normalised enrichment score": 0.837}
{"Substitution": "S2R", "normalised enrichment score": 1.12}
{"Substitution": "R5V", "normalised enrichment score": 0.117}
{"Substitution": "F8I", "normalised enrichment score": 0.192}
{"Substitution": "A6W", "normalised enrichment score": 0.102}
{"Substitution": "V3N", "normalised enrichment score": 0.0299}
{"Substitution": "T9D", "normalised enrichment score": 0.634}
{"Substitution": "S2Y", "normalised enrichment score": 0.317}
{"Substitution": "S2M", "normalised enrichment score": 0.614}
{"Substitution": "G11A", "normalised enrichment score": 0.599}
{"Substitution": "R5F", "normalised enrichment score": -0.251}
{"Substitution": "L7A", "normalised enrichment score": 0.251}
{"data": "Block 2", "target": "Eukaryotic initiation factor 4A-I (EIF4A1, Homo sapiens, UniProt P60842, residues 1-406, full length assumed)", "technique": "RNA Bind-n-Seq", "form": "RNA", "matrix": "in vitro", "tested at": "90 pmol", "setting": "4-mer, random 30-nt RNA, single round", "with": "3 µM DMDA-PatA, 2 mM ADP, 2 mM phosphate", "reference": "input library", "direction": "higher = stronger binding", "sequence of UniProt P60842 (whole entry, looked up)": "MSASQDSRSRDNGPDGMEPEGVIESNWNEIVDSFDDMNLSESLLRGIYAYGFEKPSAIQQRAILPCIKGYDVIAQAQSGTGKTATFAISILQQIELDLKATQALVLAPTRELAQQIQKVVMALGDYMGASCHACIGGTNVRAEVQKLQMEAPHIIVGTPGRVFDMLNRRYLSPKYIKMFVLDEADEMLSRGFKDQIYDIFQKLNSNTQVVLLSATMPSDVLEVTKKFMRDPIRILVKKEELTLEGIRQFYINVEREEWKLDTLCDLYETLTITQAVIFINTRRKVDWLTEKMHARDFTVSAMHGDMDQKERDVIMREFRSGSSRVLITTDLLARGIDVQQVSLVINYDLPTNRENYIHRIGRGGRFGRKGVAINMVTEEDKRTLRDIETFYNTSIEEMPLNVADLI"}
{"Sequence": "AUCU", "4-mer enrichment [fold]": 0.653}
{"Sequence": "CCGA", "4-mer enrichment [fold]": 0.595}
{"Sequence": "UUGG", "4-mer enrichment [fold]": 1.17}
{"Sequence": "AGGA", "4-mer enrichment [fold]": 1.09}
{"Sequence": "GCUA", "4-mer enrichment [fold]": 0.62}
{"Sequence": "GUCA", "4-mer enrichment [fold]": 0.761}
{"Sequence": "UGUG", "4-mer enrichment [fold]": 1.9}
{"Sequence": "CUAU", "4-mer enrichment [fold]": 0.656}
{"data": "Block 3", "target": "HLA class I histocompatibility antigen, A alpha chain, allele A*80:01 (Homo sapiens, UniProt P04439)", "observed": "peptide-MHC binding", "form": "peptide", "tested at": "concentration not given"}
{"Sequence": "SKLRALLTL", "binding": "inactive"}
{"Sequence": "FSFFMNENF", "binding": "inactive"}
{"Sequence": "MTFPVSLEY", "binding": "active"}
{"Sequence": "KQMEDGHTL", "binding": "inactive"}
{"data": "Block 4", "target": "Myc proto-oncogene protein, bHLH-zipper, MAX partner unstated (MYC, Homo sapiens, UniProt P01106, residues 368-449)", "technique": "protein-binding microarray", "form": "double-stranded DNA, one strand shown", "matrix": "in vitro", "tested at": "not given", "setting": "k-mer, scored over probes, only values ≥0.25", "direction": "higher = stronger binding", "sequence of UniProt P01106 (368-449, looked up)": "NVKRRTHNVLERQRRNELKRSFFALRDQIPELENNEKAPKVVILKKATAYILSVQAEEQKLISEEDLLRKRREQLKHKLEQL"}
{"Sequence": "ATGCACAT", "E-score": 0.345}
{"Sequence": "TGTTAACA", "E-score": 0.263}
{"Sequence": "AGCGTGCA", "E-score": 0.369}
{"Sequence": "CATCACGC", "E-score": 0.289}
{"Sequence": "ACATGATC", "E-score": 0.336}
{"Sequence": "GCGGCCAC", "E-score": 0.316}
{"Sequence": "ATCGTGTC", "E-score": 0.275}
{"Sequence": "ATGTGGAG", "E-score": 0.256}
{"data": "Mixed results", "B1": "IAA33 (Arabidopsis thaliana, UniProt Q9FKM7); chain MNSFEPQSQDSLQRRFHQDNSTTQQPRDTTTPFIPKPASKNHNNSNSSSGAAGRSFQGFGLNVEDDLVSSVVPPVTVVLEGRSICQRISLDKHGSYQSLASALRQMFVDGADSTDDLDLSNAIPGHLIAYEDMENDLLLAGDLTWKDFVRVAKRIRILPVKGNTRQVKRNE"}
{"Molecule": "CCCCN(CCCC)C(=O)CN1C[C@@H](c2cc(OC)c3c(c2)OCO3)[C@H](C(=O)O)[C@H]1CC(C)(C)CCC", "tested on": "Serine/threonine-protein kinase TNNI3K (TNNI3K, Homo sapiens, UniProt Q59H18)", "test": "cell-free assay, competition with immobilised ligand", "conditions": "1 µM", "quantity": "remaining binding", "result": "95.9%"}
{"Molecule": "B1 (IAA33)", "tested on": "IAA34 (Arabidopsis thaliana, UniProt Q9C5X0)", "test": "two-hybrid", "how to read": "reference: out of 4 tests, higher = firmer interaction", "quantity": "positive tests", "result": 4}
{"note": "Repeated from above (block 1):"}
{"Substitution": "R5F", "normalised enrichment score": -0.251}
{"Substitution": "S2Y", "normalised enrichment score": 0.317}
